Published values pooled from the literature.
Values joined by “and” are separate records of one study, mostly repeats; a detail may differ. ± marks the error that the study gave.
UniProt P48067, sequence (whole entry, looked up): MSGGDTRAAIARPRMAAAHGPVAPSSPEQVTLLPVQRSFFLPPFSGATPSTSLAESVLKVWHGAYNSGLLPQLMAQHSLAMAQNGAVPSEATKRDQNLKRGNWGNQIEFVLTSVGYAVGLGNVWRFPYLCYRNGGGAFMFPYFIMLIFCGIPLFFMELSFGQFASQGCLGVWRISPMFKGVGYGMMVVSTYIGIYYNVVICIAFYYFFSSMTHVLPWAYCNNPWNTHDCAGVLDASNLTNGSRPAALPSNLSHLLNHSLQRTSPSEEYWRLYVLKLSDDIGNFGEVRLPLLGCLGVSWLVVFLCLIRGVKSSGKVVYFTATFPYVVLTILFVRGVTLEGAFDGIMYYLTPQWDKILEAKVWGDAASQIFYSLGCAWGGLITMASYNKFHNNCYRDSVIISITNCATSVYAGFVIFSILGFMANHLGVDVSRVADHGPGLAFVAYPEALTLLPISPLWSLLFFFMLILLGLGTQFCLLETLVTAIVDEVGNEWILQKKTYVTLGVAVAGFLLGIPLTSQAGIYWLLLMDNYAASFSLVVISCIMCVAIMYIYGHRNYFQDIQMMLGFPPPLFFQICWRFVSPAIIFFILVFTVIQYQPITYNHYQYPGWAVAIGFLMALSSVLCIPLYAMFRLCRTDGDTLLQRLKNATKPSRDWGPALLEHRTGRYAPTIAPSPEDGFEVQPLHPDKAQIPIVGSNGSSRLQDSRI
UniProt Q64663, sequence (whole entry, unmodified, looked up): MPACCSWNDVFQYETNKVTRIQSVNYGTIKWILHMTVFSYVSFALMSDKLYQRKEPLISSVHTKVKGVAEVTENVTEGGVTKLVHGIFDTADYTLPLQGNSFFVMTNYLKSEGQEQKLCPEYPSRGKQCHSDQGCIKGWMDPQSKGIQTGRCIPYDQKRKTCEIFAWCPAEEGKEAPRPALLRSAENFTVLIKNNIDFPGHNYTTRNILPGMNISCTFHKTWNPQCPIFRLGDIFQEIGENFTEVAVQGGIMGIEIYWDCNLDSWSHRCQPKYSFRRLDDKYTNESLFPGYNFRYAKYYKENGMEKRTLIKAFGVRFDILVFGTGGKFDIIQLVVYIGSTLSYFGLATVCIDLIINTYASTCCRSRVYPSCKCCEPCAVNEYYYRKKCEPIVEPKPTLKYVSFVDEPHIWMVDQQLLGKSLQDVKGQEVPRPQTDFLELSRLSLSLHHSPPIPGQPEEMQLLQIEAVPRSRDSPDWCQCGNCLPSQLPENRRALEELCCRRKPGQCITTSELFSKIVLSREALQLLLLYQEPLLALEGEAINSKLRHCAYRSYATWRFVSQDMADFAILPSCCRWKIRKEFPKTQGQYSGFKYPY

`AAAALERLLQQLAAALAAGEL` gave an inhibition of greater than 75% (UltraID biotin ligase, C-terminal fusion; biotinylation activity, inhibitor, streptavidin/HA fluorescence ratio; peptide, HEK-293T; concentration not given, 30 min, together with: biotin 50 µM; reference: control).
For `Peginesatide`, the phosphorylation level was 4.6 fold (UT7/EPO; tyrosine phosphorylation, LC-MS/MS phosphoproteomics, GluC, measured: SPTA1 tyrosine 2332; 10 nM, 15 min, together with: 10 U/mL EPO; reference: vehicle).
`KPGKGSETVV` — result for “normalised SPR binding response”: 0 normalised RU (human SCRIB PDZ3-4 tandem (MBP fusion); surface plasmon resonance; peptide; concentration not given; higher = stronger binding).
For `ACEEQNPWARYLEWLFPTETLLLEL`, “mean fluorescence intensity” read 806 ± 112 a.u. (ex vivo fluorescence imaging; peptide, BALB/c mice, 4T1 tumour-bearing, liver; intravenous, 5 nmol, 2 h post-injection; higher = more uptake).
The inhibition of `DNNHCSWLYGYWEWTLWGED` is reported as greater than 75% (UltraID biotin ligase, C-terminal fusion; biotinylation activity, inhibitor, streptavidin/HA fluorescence ratio; peptide, HEK-293T; concentration not given, 30 min, together with: biotin 50 µM; reference: control).
For `GSGAGRETEV`, the binding intensity was 0.303 (human MAGI1-2/6 PDZ construct (MBP fusion); automated holdup; peptide, crude extract; concentration not given, corrected by standard peak, unit not given; reference: biotin control resin, higher = stronger binding).
Under “relative protein remaining”, `VVVGAVGVGK` is recorded as 1 (HLA class I peptide complex; Western blot; peptide, 293T; 0 h, together with: cycloheximide 100 µg/mL; reference: baseline).
With `KKVVYFEFYE` the inhibition was greater than 75% (UltraID biotin ligase, C-terminal fusion; biotinylation activity, inhibitor, streptavidin/HA fluorescence ratio; peptide, HEK-293T; concentration not given, 30 min, together with: biotin 50 µM; reference: control).
`GEMVGQARILAQATSDLVNAIKDA` — result for “mean rupture force”: 74.2 pN (vinculin head domain Vd1; complex rupture, AFM single-molecule force spectroscopy; peptide; multiple traces, C-terminal pulling, 800 nm/s).
For `FNA / CGLSGLGVA-NH2 ([18F]FNA-labelled, C-amide)`, the tissue uptake was 1.06 %ID/g (ex vivo gamma counting; peptide, glioblastoma mouse model, plasma; 60 min post injection, together with: 500-fold excess CooP blocking).
For `chondroitin`, the inhibition was -85% (NEDD8-cullin 1 interaction; AlphaScreen; 100 µM).
Under “time to peak current after uncaging”, `diazo-2` is recorded as 1.25 ± 0.23 s (cone CNG channel; Morone saxatilis, cone outer segment; 1 mM, mean of seven cells, together with: 8-Br-cGMP 15 µM).
For `secretory leukocyte protease inhibitor`, p38/β-actin ratio read “decreased” (p38 MAPK (mouse); Western blot; RAW264.7; 1 µg/mL).
With `enoxaparin sodium` the inhibition was -40% (NEDD8-cullin 1 interaction; AlphaScreen; 100 µM).
`SPMSYGRARA (P453A substitution)` — result for binding: “inhibited” (VSR1 N-terminal domain R95M (Arabidopsis thaliana); pull-down; peptide; concentration not given, pH 7.1).
`SEKHFRETEV` has a binding intensity of 0.983 (human SCRIB PDZ3-4 tandem (MBP fusion); automated holdup; peptide, purified PDZ protein; concentration not given, unit not given; reference: biotin control resin, higher = stronger binding).
With `colesevelam` the inhibition was 17.7% (NEDD8-cullin 1 interaction; AlphaScreen; 100 µM).
The binding intensity of `GSGAGPETLV` is reported as 0.547 (human SCRIB PDZ3-4 tandem (MBP fusion); automated holdup; peptide, crude extract; concentration not given, corrected by standard peak, unit not given; reference: biotin control resin, higher = stronger binding).
The mRNA level of `epoetin alfa` is reported as 41.4 fold (UT7/EPO; microarray, measured: SOCS3 (probe 206359_at); 5 U/mL, 90 min, together with: SCF 10 nM; reference: vehicle).
For `maraviroc`, “mRNA level decrease” read 3.94 fold (RAGE (human); qPCR, measured: RAGE; HBMEC; 2.5 µM, 24 h; reference: untreated cells).
`GSGAGHETIV`: “normalised SPR binding response” 6.1 normalised RU (human MAGI1-2/6 PDZ construct (MBP fusion); surface plasmon resonance; peptide; concentration not given; higher = stronger binding).
`EIKYREEV` has a t1/2 of 2 h (HLA-B8 (human); complex dissociation; peptide; 37 °C).
Under “rupture force FWHM lower side”, `ILEAAKSIAAATSALVKAASAAQRE` is recorded as 26.9 pN (vinculin head domain Vd1; complex rupture, AFM single-molecule force spectroscopy; peptide; single traces, N-terminal pulling, 800 nm/s).
`Pam3CSK4`: “relative mRNA level” 1.39 and 1.58 and 1.12 (TLR2; agonist, RT-qPCR, measured: Msr1; BV-2; 1.0 µM; reference: untreated cells).
The potassium of `caspofungin` is reported as 4.1 mmol/L (adult ICU patients, mITT, serum; dose not given, Follow-up).
Under “glycine uptake rate”, `methyl-β-cyclodextrin` is recorded as 64.5 a.u. and 63.2 a.u. and 61.6 a.u. and 61.9 a.u. (SLC6A9 (Homo sapiens, UniProt P48067); transport activity, [3H]glycine uptake; 3.5 mg/mL, 1 min, together with: glycine 600 µM; higher = more transport).
With `colistin` the MIC was 1 µg/mL (Pseudomonas aeruginosa; clinical isolate RKI 597/16).
`MTVCNASQRQAHAQATAVSL` has a selectivity ratio of 1.2 ± 0.19 (T47D; phage binding; peptide; reference: targeting over control phage).
`DNA 1 CACTGGCCGTCTTACGGTCGCTCTGCTCGACG / DNA 2 CGACCGTAAGACGGCCAGTG (dsDNA; 20 bp, 3' 12 nt overhang)` has a Kd of 86.7 ± 32.8 nM (RECQL 63-592 K325A (Homo sapiens, UniProt P46063); fluorescence anisotropy; double-stranded DNA; together with: Mg2+ 3 mM).
For `NRVDSKETEC`, the binding intensity was -0.183 (human MAGI1-2/6 PDZ construct (MBP fusion); automated holdup; peptide, purified PDZ protein; concentration not given, unit not given; reference: biotin control resin, higher = stronger binding).
The fractional oxidation of `AAAEGEMK` is reported as 0.09 (MsrA and MsrB; LC-MS/MS; peptide, acetylated Escherichia coli proteome; 10 min, pH 7.5, 37 °C, together with: MsrA 0.54 µM, MsrB 2.02 µM).
The terminal half-life of `insulin degludec` is reported as 15.3 ± 2.7 h (human; subcutaneous, 0.4 IU/kg, 2 FC level, single dose, reference formulation).
For `AAASMWR`, the fractional oxidation was 0.228 (MsrA and MsrB; LC-MS/MS; peptide, acetylated Escherichia coli proteome; 20 min, pH 7.5, 37 °C, together with: MsrA 0.54 µM, MsrB 2.02 µM).
Under “rate constant k1”, `11-deoxycorticosterone` is recorded as 0.606 ± 0.0441 s⁻¹ (CYP11B2 (human); substrate binding, stopped-flow global kinetic fitting; purified enzyme; 3-state conformational selection model, together with: 10-fold excess adrenodoxin).
`QDEKVKESYV` gave a binding intensity of 0.765 (human MAGI1-3/6 PDZ construct (MBP fusion); automated holdup; peptide, crude extract; concentration not given, uncorrected, unit not given; reference: biotin control resin, higher = stronger binding).
The normalized current of `BzATP` is reported as 0.0131 and 0 and 0.0198 (P2X purinoceptor 7 (P2rx7, Rattus norvegicus, UniProt Q64663, I214A/Q143A/R125A); ion current, agonist, two-electrode voltage clamp; Xenopus oocytes; 11 µM).
`Pam2CSK4`: “relative mRNA level” 0.227 and 0.256 and 0.187 (TLR2; agonist, RT-qPCR, measured: Mrc1; BV-2; 1.0 µM; reference: untreated cells).
`KDECVIATEV` gave a binding intensity of -0.181 (human MAGI1-3/6 PDZ construct (MBP fusion); automated holdup; peptide, purified PDZ protein; concentration not given, unit not given; reference: biotin control resin, higher = stronger binding).

Repeated from above:
`GSGAGHETIV`: “normalised SPR binding response” 6.1 normalised RU (human MAGI1-2/6 PDZ construct (MBP fusion); surface plasmon resonance; peptide; concentration not given; higher = stronger binding).
`QDEKVKESYV` gave a binding intensity of 0.765 (human MAGI1-3/6 PDZ construct (MBP fusion); automated holdup; peptide, crude extract; concentration not given, uncorrected, unit not given; reference: biotin control resin, higher = stronger binding).
